Experimental data pooled from the literature.
“And” joins repeats or separate records; there may be more than shown. ± gives the spread as reported.

CCO[C@H]1CCN(Cc2c(OC)cc(C)c3[nH]ccc23)[C@H](c2ccc(C(=O)O)cc2)C1  total AUC(0-inf) (healthy volunteers, plasma; oral, 200 mg single dose, geometric mean): 52300 ng·h/mL
Cc1cc([C@H]2C[C@H]3[C@@H](CF)SC(N)=N[C@@]3(c3ccc(F)cc3F)CO2)on1  CSF concentration (129/SVE wild-type mouse, male; subcutaneous, 30 mg/kg, 3 h): 170 nM
C=CC(=O)Nc1cc(Nc2nccc(-c3cn(C4CC4)c4ccccc34)n2)c(OC)cc1N(C)CCN(C)C  NRBC percentage (BALB/c nude mouse, LU0387 xenograft, blood; oral, 40 mg/kg): 0.32 ± 0.08%
O=C(NO)c1ccc(CN(c2cnccn2)c2cnccn2)cc1  patients with adverse event (refers to: fatigue; human; oral, dose not given, treatment-related, all dose cohorts): 10%
Cn1cc(Nc2nccc(-c3ccc4c(c3)CN(C3COC3)CC[C@H]4NC(=O)c3cn(C(C)(C)C)nn3)n2)cn1  monocyte count change (human, whole blood; 50 mg twice daily, day 14; reference: pre-dose baseline): 0.85%
CCCCc1ccc(-c2ccc(C#N)cc2)cc1  placental accumulation (Sprague-Dawley rat, female, placenta; 1000 ng/mL in perfusate, 50 (unit not given), middle dose, mixture of 21 LCMs): 15.9 ± 16.8 ng/g
CCOC(=O)N1C[C@@H](c2ccc(F)c(C#N)c2)N[C@@H](c2ccc(-c3ccccc3)cc2)C1  solubility (shake-flask, LC-HRMS; aqueous buffer; 16 h, pH 6.8): < 4 µM
C=CCN1CC(=O)N2[C@@H](Cc3ccc(O)cc3F)C(=O)N(Cc3cccc(N4CC(N5CCN(CC)CC5)C4)n3)C[C@@H]2N1C(=O)NCc1ccccc1  treatment-related AST increased (advanced solid tumour patients; oral, 15 mg twice daily, any grade, dose-escalation): 0%
C[Si](C)(C)O[Si](C)(C)O[Si](C)(C)C  log KAW (regression; 25 °C): 3.07
COc1ccc2c(c1)CN(C(=O)CCN1CCC(Cc3ccccc3)CC1)CC[S@@+]2[O-]  QRS duration (telemetry; conscious male beagle dogs; intravenous, 4 mg/kg, 2 h): 34 ± 10 ms
Cc1c(-c2ccc(N3CCc4cccc(C(=O)Nc5nc6ccccc6s5)c4C3)nc2C(=O)O)cnn1CC12CC3(C)CC(C)(C1)CC(OCCNCC[C@H](O)CO)(C3)C2  QRS duration change (beagle dog, male, anaesthetised; intravenous infusion, 0.3 mg/kg/min, 105 min; reference: vehicle): -2 ms
CNC(=O)c1ccc(-c2cnc3ncc(Cc4ccc5ncccc5c4)n3n2)cc1F  decreased appetite incidence (all grades) (CTCAE v4.0, any causality; human cancer patients; oral, 600 mg twice daily, expansion, other tumours, RP2D): 22%
NC/C(=C\F)COc1cccc(Cn2c(=S)[nH]c(=O)c3[nH]cnc32)c1  concentration (C57BL/6J mice, kidney; oral, 15 mg/kg single, 1 h): 1140 ng/mL
CCC(CC)[C@@H]1COC[C@]2(CC[C@H](c3ccccc3)CC2)N1  solubility (shake-flask, LC-HRMS; aqueous buffer; 16 h, pH 6.8): < 4 µM
CNC(=O)c1cc(Oc2ccc(NC(=O)Nc3cc(C(C)(C)C)nn3-c3ccc4ncccc4c3)c(F)c2)ccn1  patients with musculoskeletal disorder AE (refers to: worst grade 2; human; oral, dose not given, cycles 1 and 2, Medium Cmax subgroup): 13%
CC(=O)N[C@@H](CS)C(=O)O  effective permeability (single-pass intestinal perfusion; Wistar rat, duodenum vs jejunum): no effect
CNC(=O)c1cc(Oc2ccc(NC(=O)Nc3ccc(Cl)c(C(F)(F)F)c3)c(F)c2)ccn1  short-term stability accuracy (mouse plasma; 75 ng/mL, 8 h, room temperature): 104%
CC(C)[C@@H](CS(=O)(=O)C(C)C)N1C(=O)[C@@](C)(CC(=O)O)C[C@H](c2cccc(Cl)c2)[C@H]1c1ccc(Cl)cc1  AUC(0-inf) (FVB mouse, wild type, plasma; intravenous, 20 mg/kg): 24500 ± 1470 ng·h/mL
c1ccc(-c2ncc([C@H]3COC[C@@H](c4ccc(-c5ccccn5)cc4)N3)cn2)cc1  solubility (shake-flask, LC-HRMS; aqueous buffer; 16 h, pH 6.8): < 4 µM
CC/C(=C(\c1ccccc1)c1ccc(OCCN(C)C)cc1)c1ccccc1  uterine weight (immature female Sprague-Dawley rat; oral, dose not given, 4 days once daily, uterotrophic; reference: vehicle): increased
COc1cc(C(=O)NC2CCN(C)CC2)c(F)cc1Nc1ncc(C(F)(F)F)c(Oc2cccc3c2C(=O)N(C)C3)n1  dose-normalised AUC(0-inf) (human patients, plasma; oral, 25 mg single dose, geometric mean): 157 nmol·h/L per mg
CCc1cc2c(cc1N1CCC(N3CCOCC3)CC1)C(C)(C)c1[nH]c3cc(C#N)ccc3c1C2=O  average plasma concentration (ALK inhibitor-naive patients, body weight 60-90 kg; oral, 600 mg twice daily, week 6): 1300 nM
CCc1cc(C(=O)NC)c2nccc(N3CCc4c(cc(Cn5ccnc5)cc4-c4cn(C)nc4C(F)(F)F)C3=O)c2c1  serum RDW change (Sprague Dawley rats; oral, 100 mg/kg once daily, 7 days; reference: vehicle): -4.95%
CC(C)(C(=O)N1CCOc2c(C#N)cncc2C1)C(F)F  subjects with myalgia TEAE (human, both sexes; oral, 10 mg single dose): 0%
Cc1cc(C(=O)NC(C)(C)COc2cccc3c2C(N)=NS(=O)(=O)N3)cc(C)n1  AUC(last) ratio (Sprague-Dawley rat, plasma; oral, 10 mg/kg, vehicle 1% methylcellulose; reference: female over male): 1.06
CCCCC/C=C\C/C=C\CCCCCCCC(=O)O.Cc1cc(/C=C/C#N)cc(C)c1Nc1ccnc(Nc2ccc(C#N)cc2)n1  equilibrium solubility (water): 0.2 ± 0.27 µg/mL
CN1CCC(CNc2ccc3ncc(-c4cccc(OC(F)(F)F)c4)n3n2)CC1  lowest toxic concentration (skin sensitisation signature, BioMAP Diversity PLUS; primary human cell cocultures): 3.3 µM
Cc1ccc([C@@H]2O[C@H](CO)[C@@H](O)[C@H](O)[C@H]2O)cc1Cc1ccc(-c2ccc(F)cc2)s1  urinary calcium excretion change (Japanese type 2 diabetes patients; 25 mg, day 5, 24 h urine collection; reference: baseline): -14.4 mg
CC1(C)OC[C@@H](C2CCCCC2)N[C@@H]1c1ccc(Cl)c(Cl)c1  solubility (shake-flask, LC-HRMS; aqueous buffer; 16 h, pH 6.8): < 4 µM
O=C(Nc1nc2cccc(-c3ccc(CN4CCS(=O)(=O)CC4)cc3)n2n1)C1CC1  treatment-emergent adverse events (refers to: nervous system disorders; human rheumatoid arthritis patients; oral, 200 mg once daily, 4 weeks, regardless of relatedness): 33.3%
COc1ccc([C@@H](O)c2cc(-c3ncnc4cc(N5CCOCC5)ccc34)c(F)cc2Cl)nn1  lymphocyte count decrease TEAE (locally advanced rectal cancer patients; 50 mg, added: capecitabine and radiotherapy): 0%
CNc1cc[n+](CCNC(=O)c2ccn3c(-c4c(C)noc4C)cnc3c2)cc1.[Cl-]  total organic impurities (aqueous buffer; initial, pH 7): 0 % peak area
Cc1coc([C@H]2C[C@H]3[C@@H](CF)SC(N)=N[C@@]3(c3ccc(F)cc3F)CO2)n1  CSF concentration (male 129/SVE mouse, CSF; subcutaneous, 80 mg/kg, 5 h): 39 nM
Cc1cc(Nc2ncnc3ccc(NC4=NC(C)(C)CO4)cc23)ccc1Oc1ccn2ncnc2c1  drug-related adverse events (refers to: Arthralgia; healthy volunteers; oral, dose not given, grade 1-2): 3.6%
CCN1/C(=C/C(C)=O)Sc2ccc(F)cc21  QRS duration (cynomolgus monkey; oral, 10 mg/kg, 24 h post-dose): 36 ± 1 ms
COc1cc(Nc2ncc3c(n2)-c2ccc(Cl)cc2C(c2c(F)cccc2OC)=NC3)ccc1C(=O)O  patients with adverse event (refers to: Hypertension, grade 3; cancer patients, phase 1/2; oral, dose not given, added: pembrolizumab): 4%
CNCCOC12CC3(C)CC(C)(CC(Cn4ncc(-c5ccc(N6CCc7cccc(C(=O)Nc8nc9ccccc9s8)c7C6)nc5C(=O)O)c4C)(C3)C1)C2  QRS duration change (beagle dog, male, anaesthetised; intravenous bolus, 0.03 mg/kg, 5 min; reference: baseline): 1 ms
Cc1cccc(CNC(=O)c2cn(CCNC(=O)c3ccccc3S)c3cc4c(cc3c2=O)OC(F)(F)O4)n1  MRT(0-inf) (Sprague-Dawley rat, male, plasma; intravenous, 20 mg/kg of parent drug): 1.24 ± 0.12 h
Cn1cnc2ccc(Nc3c(F)ccc(NS(=O)(=O)N4CC(F)C4)c3Cl)c(Cl)c2c1=O  patients with headache (refers to: headache grade 1-2; human patients; dose not given, monotherapy trial; reference: patients): 5%
NC1(C(=O)N[C@@H](CCO)c2ccc(Cl)cc2)CCN(c2nc[nH]c3nccc2-3)CC1  incidence of Dysgeusia (metastatic CRPC patients; 480 mg b.i.d., grade 3 to 4, treatment-related, added: enzalutamide 160 mg daily): 0%
N#Cc1ccc2c(c1)[C@H]1CCCN(C(=O)c3ccc4[nH]cnc4c3)[C@H]1C2  median ACTH level (human; 160 mg, day 15): 4.2 pmol/L
O=C(Nc1ccc(OC(F)(F)Cl)cc1)c1cnc(N2CC[C@@H](O)C2)c(-c2ccn[nH]2)c1  grade ≥2 event rate (per laboratory record, refers to: ALT increase; human patients; oral, dose not given): 0.6%
Cc1ncnc2c1ccn2[C@@H]1C[C@H](Oc2cc(C(F)F)c(F)c3c2CNCC3)[C@@H](O)[C@H]1O  Cmin (human; oral, 2 mg twice daily): 21.6 ng/mL and 7.69 ng/mL
CCO[C@H]1CCN(Cc2c(OC)cc(C)c3[nH]ccc23)[C@H](c2ccc(C(=O)O)cc2)C1  incidence of pyrexia (PNH patients, active haemolysis; oral, 25 mg, treatment): 14.3%
CCCC1CCC(C2CCC(c3cc(F)c(F)c(F)c3)CC2)CC1 (stereo not shown)  placental accumulation (rat, placenta; 10 ng/mL in perfusate, low dose, mixture of 21 LCMs): 15.4 ± 17.8 ng/g
Cn1cc(-c2ccc(-c3cncc(Cl)c3N3CCC4(CCNC4=O)CC3)cc2)cn1  log2 fold change (COLO 205; gene expression, microarray, refers to: CARD6 mRNA; concentration not given, 6 h; reference: untreated cells): 6.47
CNCc1ccc(-c2[nH]c3cc(F)cc4c3c2CCNC4=O)cc1  vomiting incidence (human patients; oral, 480 mg twice daily, all grades): 55.6%
O=c1[nH]c(=O)n([C@H]2C[C@H](O)[C@@H](CO)O2)cc1CCCC[18F]  biodistribution (male CD-1 nu/nu mice, RG2 tumour, lung; intravenous, dose not given, 2 h): 0.27 ± 0.07 %ID/g
CCn1cc(C(=O)N2CCOCC2)c(=O)c2cc(NC3Cc4ccccc4C3)cnc21  patients with adverse event (human, GAD, PTSD or social anxiety disorder; dose not given, TEAE Somnolence, pooled phase trials): 5.1%
CCN1CCN(Cc2ccc(NC(=O)c3ccc(C)c(NC(=O)c4cncc(-c5cccs5)c4)c3)cc2C(F)(F)F)CC1  plasma concentration (LC-MS/MS; C57BL/6 mouse, plasma; intraperitoneal, 30 mg/kg single dose, 2 h): 426 ng/mL and 454 ng/mL and 607 ng/mL
Cc1cc(NC2CCN(C(=O)OC3CCN(C(=O)/C=C/CN(C)C)C3)CC2)n2ncc(C(C)C)c2n1 (stereo not shown)  patients with Nausea (patients with advanced solid tumours; dose not given, QD arm, any grade): 28%
O=c1[nH]c(=O)n([C@H]2C[C@H](O)[C@@H](CO)O2)cc1CCCCC[18F]  biodistribution (male CD-1 nu/nu mice, RG2 tumour, bone; intravenous, dose not given, 2 h): 1.79 ± 0.67 %ID/g
Cc1cc(N[C@H]2CCc3ccc(Cl)cc3C2)n2nc(C(C)(F)F)nc2n1  AUC(0-t) (NSG mouse, whole blood; oral, 30 mg/kg): 28 µM·h
COc1ccc2c(=O)n(C)c(-c3ccccc3)nc2c1  tissue/plasma ratio (Sprague-Dawley rat, male, spleen; oral, 30 mg/kg, 4 h; reference: spleen over plasma): 10.2
C[C@H](CCC(=O)NCC(=O)O)[C@H]1CC[C@H]2[C@@H]3CC[C@@H]4C[C@H](O)CC[C@]4(C)[C@H]3CC[C@]12C  Cmin (human, plasma; endogenous baseline diurnal): 9.27 ± 2.59 nM
COc1ncnn2ccc(-c3cnc4nc(C)n(Cc5nnc([C@@H](C)F)o5)c4c3)c12  elimination half-life (LC-MS/MS; human, plasma; oral, 70 mg capsule, cycle 1 day 1): 4.89 h
C[C@H](CCC(=O)NCC(=O)O)[C@H]1CC[C@H]2[C@@H]3[C@H](O)C[C@@H]4C[C@H](O)CC[C@]4(C)[C@H]3C[C@H](O)[C@]12C  Cmin (human, plasma; oral, dose not given, control): 14.9 ± 2.1 nM
CCOc1c([C@H](C)n2nc(C)c3c(N)ncnc32)cc(Cl)c(F)c1[C@@H]1CNC(=O)C1  ECG observations (refers to: QTcF change above 60 ms; previously treated B-cell malignancy; oral, 45 mg once daily, baseline QTcF ≤450 ms; reference: baseline): 0%

For quick reference, copied from above:
N#Cc1ccc2c(c1)[C@H]1CCCN(C(=O)c3ccc4[nH]cnc4c3)[C@H]1C2  median ACTH level (human; 160 mg, day 15): 4.2 pmol/L
O=C(Nc1ccc(OC(F)(F)Cl)cc1)c1cnc(N2CC[C@@H](O)C2)c(-c2ccn[nH]2)c1  grade ≥2 event rate (per laboratory record, refers to: ALT increase; human patients; oral, dose not given): 0.6%
Cc1ncnc2c1ccn2[C@@H]1C[C@H](Oc2cc(C(F)F)c(F)c3c2CNCC3)[C@@H](O)[C@H]1O  Cmin (human; oral, 2 mg twice daily): 21.6 ng/mL and 7.69 ng/mL
CCO[C@H]1CCN(Cc2c(OC)cc(C)c3[nH]ccc23)[C@H](c2ccc(C(=O)O)cc2)C1  incidence of pyrexia (PNH patients, active haemolysis; oral, 25 mg, treatment): 14.3%
